Experimental data from different studies.
Route: oral

For `CCC1(CC)CC(=O)N(C2c3cc(C(=O)NC4c5ccccc5CC4O)ccc3OC2(C)COC)C(=N)N1` (centres unmarked), the bioavailability was 66% (male beagle dog, plasma).
For `OCC1OC(n2cnc3c(NCc4ccc(Br)s4)ncnc32)C(O)C1O` (centres unmarked), the bioavailability was 59 to 79% (beagle dog, blood).
With `N#Cc1ccnc(N2C(=O)CC[C@H]2C(=O)N(c2cc(F)cc(F)c2)[C@H](C(=O)NC2CC(F)(F)C2)c2ccccc2Cl)c1` (stereo in doubt) the bioavailability was 18% (beagle dog, plasma; 10 mg/kg).
`CCC1(CC)CC(=O)N(C2CCOc3ccc(C(=O)NC4CC(C)(C)Oc5ccccc54)cc32)C(=N)N1` (centres unmarked) gave a bioavailability of 42.4% (male beagle dog, plasma).
For `C/C(N)=N/C(=N\S(=O)(=O)c1ccc(C(F)(F)F)cc1)N1C[C@H](c2ccccc2)C(c2ccc(Cl)cc2)=N1`, the bioavailability was 21% (beagle dog, plasma; 36 mg/kg).
`N#Cc1ccnc(N2C(=O)CC[C@H]2C(=O)N(c2cncc(F)c2)[C@H](C(=O)NC2CC(F)(F)C2)c2ccccc2Cl)c1` has a bioavailability of 21% (beagle dog, plasma; 10 mg/kg).
For `COc1cc2ncnc(Oc3ccc(Nc4nccc5[nH]cc(-c6ccc(F)cc6)c(=O)c45)cc3F)c2cc1OC`, the bioavailability was 72.6% (male beagle dog, plasma).
For `Cn1cncc1[C@@]1(N)c2ccc(C#N)c(c2)COc2cccc(c2)-c2cc(C#N)nc3ccc1cc23`, the bioavailability was 86% (beagle dog, plasma; 10 mg/kg, single dose).

For quick reference, copied from above:
`CCC1(CC)CC(=O)N(C2CCOc3ccc(C(=O)NC4CC(C)(C)Oc5ccccc54)cc32)C(=N)N1` (centres unmarked) gave a bioavailability of 42.4% (male beagle dog, plasma).
